Results of several laboratories.
Protocols differ between the studies behind these lines. “And” joins repeats or separate records; there may be more than shown. ± gives the spread as reported.

SMILES | cell line | assay | conditions | EC50
F[P-](F)(F)(F)(F)F.F[P-](F)(F)(F)(F)F.[Ru+2].c1ccc(-c2ccccn2)nc1.c1ccc(-c2ccccn2)nc1.c1csc(-c2ccc(-c3ccc(-c4cc5cccnc5c5ncccc45)s3)s2)c1 | HL-60 | cell viability, resazurin | 16 h drug-to-light interval, together with: red light 625 nm, 100 J/cm2 | ~2 µM and 2.2 µM
N[C@@H]1C[C@H]1c1ccccc1 (racemic) | NCI-H510A | cell growth or viability, resazurin | 10 days | > 2 µM
Cc1nc(C(=O)N[C@@H](CCCNC(=N)N)C(=O)NCC(=O)N[C@@H](CC(=O)O)C(=O)N[C@@H](CO)C(=O)NC2CC(C)(C)N([O])C(C)(C)C2)cc2c1[nH]c1ccccc12 | PC-12 | cytoprotection, MTT | 1 h pretreatment, together with: 1 mM H2O2 and Fe(II) 1 h | 15.7 ± 2.5 µM
CC[C@H](C)[C@H](NC(=O)[C@H](CCCNC(=N)N)NC(=O)[C@H](CCCNC(=N)N)NC(=O)[C@H](CC(C)C)NC(=O)[C@H](CCC(=O)O)NC(=O)[C@H](CCC(N)=O)NC(=O)[C@H](C)NC(=O)[C@@H](NC(=O)[C@H](CNC(=O)CCl)NC(=O)[C@H](CCCNC(=N)N)NC(=O)[C@H](CCCNC(=N)N)NC(=O)[C@@H]1CCCN1C(=O)[C@H](CCCNC(=N)N)NC(=O)[C@H](CCCNC(=N)N)NC(=O)[C@@H]1CCCN1C(=O)[C@H](CCCNC(=N)N)NC(=O)[C@H](CCCNC(=N)N)NC(=O)[C@@H]1CCCN1C(=O)[C@H](CCCNC(=N)N)NC(=O)[C@H](CCCNC(=N)N)NC(=O)[C@@H]1CCCN1C(=O)[C@H](CCCNC(=N)N)NC(=O)[C@H](CCCNC(=N)N)NC(=O)[C@@H]1CCCN1C(C)=O)[C@@H](C)CC)C(=O)NCC(=O)N[C@@H](CC(=O)O)C(=O)N[C@@H](CCC(=O)O)C(=O)N[C@@H](Cc1ccccc1)C(=O)N[C@@H](CC(N)=O)C(=O)N[C@@H](C)C(=O)N[C@@H](Cc1ccc(O)cc1)C(=O)N[C@@H](Cc1ccc(O)cc1)C(=O)N[C@@H](C)C(=O)N[C@@H](CCCNC(=N)N)C(=O)N[C@@H](CCCNC(=N)N)C(N)=O | Raji | apoptosis, flow cytometry | – | < 5 µM
C=CC(=O)Nc1cc(-c2nn(C3CCC(N4CCN(C(C)=O)CC4)CC3)c3ncnc(N)c23)ccc1Oc1ccccc1 (centres unmarked) | HCC827 GR6 | cell proliferation | 3 days | ≥ 10 µM
CC[C@H](C)[C@H](NC(=O)CNC(=O)[C@H](CC(=O)O)NC(=O)[C@H](CC(C)C)NC(=O)[C@@H](NC(=O)[C@H](CC(N)=O)NC(=O)[C@H](CCC(N)=O)NC(=O)CNC(=O)[C@H](CC(C)C)NC(=O)[C@H](CCCCN)NC(=O)[C@H](CCC(=O)O)NC(=O)[C@@H](NC(=O)[C@H](CCCCN)NC(=O)[C@H](CCC(=O)O)NC(=O)[C@H](Cc1ccccc1)NC(=O)[C@H](CC(C)C)NC(=O)[C@H](CCCCN)NC(=O)[C@H](Cc1c[nH]c2ccccc12)NC(=O)[C@@H](N)CCC(=O)O)[C@@H](C)CC)[C@@H](C)CC)C(=O)N[C@H](C(=O)N[C@@H](CCCCN)C(=O)N[C@@H](CC(C)C)C(=O)NCC(=O)N1CCC[C@H]1C(=O)N[C@@H](CC(C)C)C(=O)N[C@@H](CC(C)C)C(=O)N[C@@H](C)C(=O)N[C@@H](CC(C)C)C(=O)N[C@@H](CC(C)C)C(=O)NCC(=O)N[C@@H](CCC(N)=O)C(=O)N[C@@H](CC(C)C)C(=O)N[C@H](C(=O)N[C@@H](CCC(N)=O)C(=O)N[C@H](C(=O)N[C@@H](C)C(=O)N[C@@H](CC(C)C)C(N)=O)[C@@H](C)CC)[C@@H](C)O)[C@@H](C)CC | sheep erythrocytes | turbidity | pH 7.5 | ≥ 50 µM
C[C@@H]1NC(=O)[C@@H](Cc2ccccc2)NC(=O)[C@@H]2CCCCNC(=O)c3cc(cc(c3)C(=O)N[C@H](Cc3ccc4ccccc4c3)C(=O)N[C@@H](CO)C(=O)N[C@@H](CC(N)=O)C(=O)N[C@H](Cc3ccc4ccccc4c3)C(=O)N[C@@H](c3ccccc3)C(=O)N2)C(=O)NC[C@@H](C(=O)N[C@@H](CCCN)C(=O)N[C@H](CCCNC(=N)N)C(N)=O)NC(=O)[C@H](CCCNC(=N)N)NC(=O)[C@@H](CCCNC(=N)N)NC1=O | H358 | cell viability, CellTiter-Glo | 96 h, 10% FBS | 16 ± 4 µM
N#Cc1cccc(-c2ccccc2C(N)=O)c1 | BSR-T7 | T7 polymerase luciferase reporter | – | > 100 µM
CC(C)C[C@@H](/C=C/[C@H](Cc1ccccc1)C(=O)N1CCC[C@H]1C(=O)N[C@H](C(=O)NC1CC(C)(C)N([O])C(C)(C)C1)C(C)C)NC(=O)OC(C)(C)C | HT-1080 | protection from ferroptosis, PrestoBlue | 24 h, together with: erastin 10 µM | 0.465 µM
F[P-](F)(F)(F)(F)F.F[P-](F)(F)(F)(F)F.[Ru+2].c1ccc(-c2ccccn2)nc1.c1ccc(-c2ccccn2)nc1.c1csc(-c2cc3cccnc3c3ncccc23)c1 | HL-60 | cell viability | dark | not toxic
CC[C@H](C)[C@@H]1NC(=O)[C@H](Cc2c[nH]c3ccccc23)NC(=O)[C@H](CCCCCC(=O)NO)NC(=O)[C@H]2CCCCN2C1=O | human iPSC-derived NPCs | inducer, ELISA, measured: intracellular progranulin | 18 h | 0.038 ± 0.001 µM
CC(C)C[C@@H](NC(=O)[C@@H](CCCCN)NC(=O)CCN1C(=O)CC(SC[C@H](NC(=O)[C@H](CCCCNC(=O)CCN2C(=O)CC(SC[C@H](NC(=O)[C@H](CCCCN)NC(=O)[C@H](CCCCN)NC(=O)[C@H](CCCCN)NC(=O)[C@H](CO)NC(=O)CNC(=O)CNC(=O)CNC(=O)[C@H](Cc3ccc(O)cc3)NC(=O)[C@H](Cc3c[nH]c4ccccc34)NC(=O)[C@H](Cc3c[nH]c4ccccc34)NC(=O)[C@H](CCCCN)NC(=O)[C@@H](NC(=O)CNC(=O)[C@H](Cc3c[nH]c4ccccc34)NC(=O)[C@@H]3CCCN3C(=O)[C@H](CC(=O)O)NC(=O)[C@H](CCC(N)=O)NC(=O)[C@H](CCC(=O)O)NC(=O)[C@@H](N)Cc3ccc(O)cc3)C(C)C)C(N)=O)C2=O)NC(=O)CCN2C(=O)CC(SC[C@H](NC(=O)[C@H](CCCCN)NC(=O)[C@H](CCCCN)NC(=O)[C@H](CCCCN)NC(=O)[C@H](CO)NC(=O)CNC(=O)CNC(=O)CNC(=O)[C@H](Cc3ccc(O)cc3)NC(=O)[C@H](Cc3c[nH]c4ccccc34)NC(=O)[C@H](Cc3c[nH]c4ccccc34)NC(=O)[C@H](CCCCN)NC(=O)[C@@H](NC(=O)CNC(=O)[C@H](Cc3c[nH]c4ccccc34)NC(=O)[C@@H]3CCCN3C(=O)[C@H](CC(=O)O)NC(=O)[C@H](CCC(N)=O)NC(=O)[C@H](CCC(=O)O)NC(=O)[C@@H](N)Cc3ccc(O)cc3)C(C)C)C(N)=O)C2=O)C(=O)O)C1=O)C(=O)N[C@H](C)C(=O)N[C@H](CCCCN)C(=O)N[C@H](CC(C)C)C(=O)N[C@H](C)C(=O)N[C@H](CCCCN)C(=O)N[C@H](CCCCN)C(=O)N[C@H](CC(C)C)C(=O)N[C@H](C)C(=O)N[C@H](CCCCN)C(=O)N[C@H](CC(C)C)C(=O)N[C@H](C)C(=O)N[C@H](CCCCN)C(N)=O (some centres unmarked) | M2 macrophages | cell viability, propidium iodide staining | 2 h | 1.08 µM
CC[C@H](C)[C@H](NC(=O)[C@H](CO)NC(=O)[C@@H]1CCCN1C(=O)C(C)(C)NC(=O)[C@H](CC(C)C)NC(=O)[C@H](CCC(N)=O)NC(=O)C(C)(C)NC(C)=O)C(=O)NC(C)(C)C(=O)N1CCC[C@H]1C(=O)NC(C)(C)C(=O)N[C@@H](CC(C)C)C(=O)NC(C)(C)C(=O)N1CCC[C@H]1C(=O)N[C@H](CO)CC(C)C | HepG2 | cytotoxicity, MTS | 48 h | > 25 µM
C[C@@H]1NC(=O)[C@@H](Cc2ccccc2)NC(=O)[C@@H]2CCCCNC(=O)c3cc(cc(c3)C(=O)N[C@H](Cc3ccc4ccccc4c3)C(=O)N[C@@H](CO)C(=O)N[C@@H](CC(N)=O)C(=O)N[C@H](Cc3ccc4ccccc4c3)C(=O)N[C@@H](c3ccccc3)C(=O)N2)C(=O)NC[C@@H](C(=O)N[C@@H](CCCN)C(=O)N[C@H](CCCNC(=N)N)C(=O)N[C@@H](Cc2ccc(O)cc2)C(=O)N[C@H](C)C(N)=O)NC(=O)[C@H](CCCNC(=N)N)NC(=O)[C@@H](CCCNC(=N)N)NC1=O | H358 | cell viability, CellTiter-Glo | 96 h, 10% FBS | 19 ± 10 µM
CC[C@H](C)[C@H](NC(=O)[C@H](CC(N)=O)NC(=O)[C@H](CCCCN)NC(=O)[C@H](Cc1ccccc1)NC(=O)[C@H](Cc1ccccc1)NC(=O)[C@H](Cc1c[nH]cn1)NC(=O)[C@@H](NC(=O)[C@@H](NC(=O)[C@@H]1CCCN1C(=O)[C@@H](N)CC(N)=O)C(C)C)C(C)C)C(=O)N[C@H](C(=O)N[C@H](C(=O)N[C@@H](C)C(=O)O)[C@@H](C)O)C(C)C | T cell clone Ob.1C3 | T cell proliferation, agonist, [3H]thymidine incorporation | 72 h, peptide-pulsed APC, together with: EBV-transformed B cells DR2/DQ6 as APC | > 50 µM
O=C(c1cccc(I)c1)N1CCN(C(=O)c2cc(Cc3n[nH]c(=O)c4ccccc34)ccc2F)CC1 [iodine-123 labelled] | HCT-116 p53+/+ | cell viability, Alamar Blue | 4 days | 0.011 µM
C[C@@H]1NC(=O)[C@@H](Cc2ccccc2)NC(=O)[C@@H]2CCCCNC(=O)c3cc(cc(c3)C(=O)N[C@H](Cc3ccc4ccccc4c3)C(=O)N[C@@H](CO)C(=O)N[C@@H](CC(N)=O)C(=O)N[C@H](Cc3ccc4ccccc4c3)C(=O)N[C@@H](c3ccccc3)C(=O)N2)C(=O)NC[C@@H](C(=O)N[C@@H](CCCN)C(=O)N[C@H](CCCNC(=N)N)C(=O)N[C@@H](Cc2ccc(F)cc2)C(N)=O)NC(=O)[C@H](CCCNC(=N)N)NC(=O)[C@@H](CCCNC(=N)N)NC1=O | H358 | cell viability, CellTiter-Glo | 96 h, 10% FBS | 15 ± 2 µM
